Experimental data collected from several papers.
Compare with care: the assays were run in different laboratories. Several values in a cell are separate wells, animals, samples, runs or records.
PIK3CD: Phosphatidylinositol 4,5-bisphosphate 3-kinase catalytic subunit delta isoform (PIK3CD, Homo sapiens, UniProt O00329)

SMILES | target | test | test system | setting | scale | endpoint | result
CNC1C[S+]2CC[S+]3CC[S+](C1)[Ru-4]321([N]=C=S)[n]2c3ccc(OC)cc3c3c4c(c5cc(F)c[n+]1c5c32)C(=O)NC4=O (centres unmarked) | PIK3CD | KinomeScan | – | 0.1 µM | baseline: untreated | remaining binding | 88%
C=CC(=O)Nc1cccc(-c2cnc3[nH]cc(C(=O)NC(C)(C)C)c3n2)c1 | PIK3CD | kinase activity | – | 0.1 µM | – | inhibition | 23% and 14%
COc1c(Cl)cccc1Nc1c(-c2ccncc2C#C[C@@]2(C)CCCN2C(=O)/C=C/CN(C)C)[nH]c2c1C(=O)NCC2 | PIK3CD | cell-free assay, competition with immobilised ligand | – | 3 µM | – | remaining binding | 83%
Cc1nc2c(F)cc(-c3nc(Nc4ccc(CNC(=O)CCCCCCC(=O)NO)cc4)ncc3F)cc2n1C(C)C | Phosphatidylinositol 4,5-bisphosphate 3-kinase catalytic subunit delta isoform, with p85 (PIK3CD, Homo sapiens, UniProt O00329) | enzyme activity, inhibitor | – | 1 µM | – | inhibition | 47%
C=CC(=O)N1CCCC(n2c(=O)c3ncccc3n(Cc3ccc(Oc4ccccc4)cc3)c2=O)C1 (centres unmarked) | PIK3CD | cell-free assay, competition with immobilised ligand | – | 1 µM | – | remaining binding | 100%
CCN1CCN(Cc2ccc(C(=O)Nc3ccc(C)c(NCc4cnc5[nH]ccc5c4OC)c3)cc2C(F)(F)F)CC1 | PIK3CD | binding, competition with immobilised ligand | – | 1 µM | – | remaining binding | 81%
Cc1cnc2nc1Nc1cccc(c1)COC/C=C/COCc1cc(ccc1OCCN1CCOCC1)N2 | PIK3CD | binding | – | 0.1 µM | – | remaining binding | 69%
COc1cc(Nc2nc(C)cc(-c3cnn4nc(OC)ccc34)n2)cc(C(F)(F)F)c1 | PIK3CD | inhibitor | – | 1 µM | baseline: control | remaining activity | 88%
CN1CCN(Cc2ccc(-c3ccc(CO[C@H]4CCC[C@@H]4NC(=O)c4cc(-c5cnn(C)c5)cnc4N)cc3)cc2)CC1 | Phosphatidylinositol 4,5-bisphosphate 3-kinase catalytic subunit delta isoform, with p85 alpha (PIK3CD, Homo sapiens, UniProt O00329) | SelectScreen kinase profiling | – | 0.1 µM | – | inhibition | -15%
CNC(=O)C1CCN(c2cc(C)c(F)cc2NC(=O)c2ccc(-c3cc(O)ccc3C)c(C)c2)CC1 | PIK3CD | binding, competition with immobilised ligand | – | 1 µM | – | remaining binding | 100%
CC(=O)c1cnc(N)nc1N1CC[C@H]1c1nn2ccc(Cl)c2c(=O)n1-c1ccccc1 | PIK3CD | kinase occupancy, inhibitor, KiNativ ATP probe profiling | intact PBMC | 0.01 µM, 1 h | – | inhibition of probe binding | 9.2%

A few entries again:
SMILES | target | test | test system | setting | scale | endpoint | result
C=CC(=O)N1CCCC(n2c(=O)c3ncccc3n(Cc3ccc(Oc4ccccc4)cc3)c2=O)C1 (centres unmarked) | PIK3CD | cell-free assay, competition with immobilised ligand | – | 1 µM | – | remaining binding | 100%
